{"data": "Assay results from different studies", "note": "Each numbered part is a random draw from the data of one study; scales do not carry over between parts. Substitutions count along the parent as printed.", "chain of UniProt Q96LR5 (whole entry, looked up)": "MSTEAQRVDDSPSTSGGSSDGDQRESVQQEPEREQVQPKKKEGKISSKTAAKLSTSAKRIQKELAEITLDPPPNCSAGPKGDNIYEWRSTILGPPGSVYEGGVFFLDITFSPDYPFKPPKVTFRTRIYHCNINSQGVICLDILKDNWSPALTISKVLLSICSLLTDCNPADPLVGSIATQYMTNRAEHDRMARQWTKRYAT", "chain of UniProt P49427 (whole entry, looked up)": "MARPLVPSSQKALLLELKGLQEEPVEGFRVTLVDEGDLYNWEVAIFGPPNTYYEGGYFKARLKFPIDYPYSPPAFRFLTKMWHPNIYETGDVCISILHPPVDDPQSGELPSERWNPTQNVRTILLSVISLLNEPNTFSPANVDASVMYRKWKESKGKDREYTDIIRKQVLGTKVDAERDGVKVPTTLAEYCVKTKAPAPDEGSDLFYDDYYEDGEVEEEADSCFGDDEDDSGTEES", "chain of UniProt Q8WVN8 (whole entry, looked up)": "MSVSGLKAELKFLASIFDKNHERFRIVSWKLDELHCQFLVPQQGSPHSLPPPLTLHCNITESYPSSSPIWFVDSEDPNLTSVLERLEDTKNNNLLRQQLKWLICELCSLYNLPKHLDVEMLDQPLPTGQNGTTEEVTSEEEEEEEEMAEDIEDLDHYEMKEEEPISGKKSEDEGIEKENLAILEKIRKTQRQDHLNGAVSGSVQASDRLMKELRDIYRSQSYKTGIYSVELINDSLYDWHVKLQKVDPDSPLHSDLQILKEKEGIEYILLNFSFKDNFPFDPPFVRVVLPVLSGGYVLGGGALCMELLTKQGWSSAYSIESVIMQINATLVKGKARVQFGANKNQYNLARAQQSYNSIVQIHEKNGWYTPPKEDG", "chain of UniProt P62256 (whole entry, looked up)": "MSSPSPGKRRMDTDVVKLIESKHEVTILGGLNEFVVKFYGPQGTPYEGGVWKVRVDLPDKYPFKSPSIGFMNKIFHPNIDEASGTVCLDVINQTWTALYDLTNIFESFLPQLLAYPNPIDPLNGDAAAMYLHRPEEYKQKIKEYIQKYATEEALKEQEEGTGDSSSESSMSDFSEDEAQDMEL", "chain of UniProt Q13404 (whole entry, looked up)": "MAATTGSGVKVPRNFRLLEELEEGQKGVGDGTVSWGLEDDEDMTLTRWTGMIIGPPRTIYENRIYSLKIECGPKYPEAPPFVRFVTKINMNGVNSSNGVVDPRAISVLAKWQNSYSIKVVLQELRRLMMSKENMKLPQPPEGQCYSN", "chain of UniProt P61088 (whole entry, looked up)": "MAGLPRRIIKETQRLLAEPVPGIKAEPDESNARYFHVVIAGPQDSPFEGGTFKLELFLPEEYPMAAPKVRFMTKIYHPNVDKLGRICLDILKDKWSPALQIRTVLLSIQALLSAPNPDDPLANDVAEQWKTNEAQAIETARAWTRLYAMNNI", "chain of UniProt Q5VVX9 (whole entry, looked up)": "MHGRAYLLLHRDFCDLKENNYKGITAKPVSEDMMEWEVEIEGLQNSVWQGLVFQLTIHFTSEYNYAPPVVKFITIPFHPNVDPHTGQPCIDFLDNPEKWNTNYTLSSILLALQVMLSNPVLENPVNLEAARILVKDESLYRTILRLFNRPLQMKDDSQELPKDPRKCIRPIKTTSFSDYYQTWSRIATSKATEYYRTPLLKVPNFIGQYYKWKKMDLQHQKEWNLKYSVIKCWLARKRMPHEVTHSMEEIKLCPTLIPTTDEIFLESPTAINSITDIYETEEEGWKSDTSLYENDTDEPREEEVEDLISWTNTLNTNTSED", "chain of UniProt P60604 (whole entry, looked up)": "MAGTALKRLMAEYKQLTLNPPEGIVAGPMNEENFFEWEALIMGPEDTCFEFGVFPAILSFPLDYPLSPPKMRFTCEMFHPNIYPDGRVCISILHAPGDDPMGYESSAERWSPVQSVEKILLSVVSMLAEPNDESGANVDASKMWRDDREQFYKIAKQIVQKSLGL", "chain of UniProt O14933 (whole entry, looked up)": "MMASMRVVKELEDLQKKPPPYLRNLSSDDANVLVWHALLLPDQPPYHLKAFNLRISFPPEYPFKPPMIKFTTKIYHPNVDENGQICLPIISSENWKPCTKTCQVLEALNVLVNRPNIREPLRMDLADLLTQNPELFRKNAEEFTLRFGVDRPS", "chain of UniProt Q15819 (whole entry, looked up)": "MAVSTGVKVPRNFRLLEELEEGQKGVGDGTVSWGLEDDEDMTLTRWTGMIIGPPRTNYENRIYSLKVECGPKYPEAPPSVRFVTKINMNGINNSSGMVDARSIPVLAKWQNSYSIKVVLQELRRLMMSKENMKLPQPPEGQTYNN"}
{"data": "Series 1", "target": "CEBPB, bZIP domain (human)", "technique": "DHFR protein complementation", "sample": "yeast", "setting": "single substitutions, most at no-binding floor", "relative to": "wild-type JUN-FOS pair", "direction": "higher = stronger binding", "starting sequence": "JUN, bZIP domain (human); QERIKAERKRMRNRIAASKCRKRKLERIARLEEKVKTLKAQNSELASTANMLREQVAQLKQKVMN; partner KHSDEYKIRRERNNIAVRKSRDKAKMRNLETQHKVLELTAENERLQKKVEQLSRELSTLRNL"}
{"Variant": "T37S", "binding fitness [natural log]": -1.39}
{"Variant": "L31M", "binding fitness [natural log]": -1.15}
{"Variant": "K36M", "binding fitness [natural log]": -1.4}
{"Variant": "A29Y", "binding fitness [natural log]": -1.33}
{"Variant": "R53S", "binding fitness [natural log]": -0.935}
{"Variant": "K36L", "binding fitness [natural log]": -1.32}
{"Variant": "A46V", "binding fitness [natural log]": -1.2}
{"Variant": "K36P", "binding fitness [natural log]": -1.52}
{"Variant": "L31R", "binding fitness [natural log]": -1.39}
{"Variant": "Q41G", "binding fitness [natural log]": -1.49}
{"Variant": "E32Q", "binding fitness [natural log]": -1.37}
{"Variant": "A57V", "binding fitness [natural log]": -1.38}
{"Variant": "M51S", "binding fitness [natural log]": -1.28}
{"Variant": "R30H", "binding fitness [natural log]": -1.36}
{"Variant": "S43Y", "binding fitness [natural log]": -1.33}
{"Variant": "S43T", "binding fitness [natural log]": -1.2}
{"Variant": "V56W", "binding fitness [natural log]": -1.45}
{"Variant": "A40M", "binding fitness [natural log]": -1.36}
{"Variant": "A49C", "binding fitness [natural log]": -1.44}
{"Variant": "R30P", "binding fitness [natural log]": -1.36}
{"Variant": "Q55P", "binding fitness [natural log]": -1.56}
{"Variant": "E32C", "binding fitness [natural log]": -1.52}
{"Variant": "L38C", "binding fitness [natural log]": -1.48}
{"Variant": "M51Y", "binding fitness [natural log]": -1.25}
{"Variant": "A29V", "binding fitness [natural log]": -1.32}
{"data": "Series 2", "target": "Interferon regulatory factor 7, full length, phosphomimetic (IRF7, Homo sapiens, UniProt Q92985, residues 1-503, S471D/S472D/S475D/S476D/S477D/S483D/S484D/S487D)", "technique": "protein-binding microarray", "molecule type": "double-stranded DNA, one strand shown", "sample": "in vitro", "concentration": "2200 nM top", "setting": "60-bp whole probe", "added": "salmon DNA 0.4 mg/ml", "relative to": "random background probes", "direction": "higher = stronger binding", "all sequences stand within": "GCCTAGCAC … GTCTTGATTCGCTTGACGCTGCTG", "chain of UniProt Q92985 (whole entry, unmodified, looked up)": "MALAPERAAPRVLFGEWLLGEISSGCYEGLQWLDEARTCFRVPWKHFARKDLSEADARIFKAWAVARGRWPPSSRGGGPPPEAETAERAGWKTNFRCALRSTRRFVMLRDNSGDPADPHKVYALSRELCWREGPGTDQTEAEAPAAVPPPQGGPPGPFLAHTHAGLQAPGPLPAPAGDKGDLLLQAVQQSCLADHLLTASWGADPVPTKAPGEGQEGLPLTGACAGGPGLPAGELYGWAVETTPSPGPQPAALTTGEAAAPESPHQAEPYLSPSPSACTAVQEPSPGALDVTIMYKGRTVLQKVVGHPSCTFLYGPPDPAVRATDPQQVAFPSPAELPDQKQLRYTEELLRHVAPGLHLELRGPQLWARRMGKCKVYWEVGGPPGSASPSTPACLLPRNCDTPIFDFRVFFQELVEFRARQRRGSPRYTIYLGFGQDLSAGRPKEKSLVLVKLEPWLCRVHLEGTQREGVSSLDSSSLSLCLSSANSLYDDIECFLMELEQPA"}
{"Oligonucleotide": "GACGGTATACTTCTCCTGACGTGCTAG", "fitted relative affinity": "0.768 z-score"}
{"Oligonucleotide": "TTAAGTCTCGGTCTCGGTTAGTGCTAG", "fitted relative affinity": "0.957 z-score"}
{"Oligonucleotide": "TCAAATGACCTTCTCAGACTGTGCTAG", "fitted relative affinity": "-0.0786 z-score"}
{"Oligonucleotide": "AAGTTTTTCATTTTTTTTCAGTGCTAG", "fitted relative affinity": "1.4 z-score"}
{"Oligonucleotide": "TGAGGTTTCCTTCTCCTTTAGTGCTAG", "fitted relative affinity": "2.05 z-score"}
{"Oligonucleotide": "GACGGACTGCTTATCCTGCCGTGCTAG", "fitted relative affinity": "0.214 z-score"}
{"Oligonucleotide": "GACGTTATCAGACTGGAGACGTGCTAG", "fitted relative affinity": "0.0595 z-score"}
{"Oligonucleotide": "GACGGTCTCGGTTTCGGGGCGTGCTAG", "fitted relative affinity": "2.83 z-score"}
{"Oligonucleotide": "GACGATTTCGGGTTTCAAGACGTGCTA", "fitted relative affinity": "4.43 z-score"}
{"Oligonucleotide": "GACGGACGGGGACTGGGGACGTGCTAG", "fitted relative affinity": "-0.592 z-score"}
{"Oligonucleotide": "TGTGCTTTCCTGATGGTTCTGTGCTAG", "fitted relative affinity": "2.33 z-score"}
{"Oligonucleotide": "TTAGAAATCGGGTTTCGATTAGTGCTA", "fitted relative affinity": "2.2 z-score"}
{"Oligonucleotide": "GACGGTCTCGGACCGGGGACGTGCTAG", "fitted relative affinity": "-0.584 z-score"}
{"Oligonucleotide": "TTAGATTTCGGGACTGAATTAGTGCTA", "fitted relative affinity": "0.581 z-score"}
{"Oligonucleotide": "CCAGTTTTCTTTTCATTACTGTGCTAG", "fitted relative affinity": "6.01 z-score"}
{"Oligonucleotide": "TTAAGACTGCTTCTCCTTTAGTGCTAG", "fitted relative affinity": "0.615 z-score"}
{"Oligonucleotide": "TTAGATCTCAGTATCGATTAGTGCTAG", "fitted relative affinity": "0.105 z-score"}
{"data": "Series 3", "target": "RNA binding protein fox-1 homolog 2, RRM domain, GST-SBP tag (RBFOX2, Homo sapiens, UniProt O43251-10, residues 100-194)", "technique": "RNA Bind-n-Seq", "molecule type": "RNA", "sample": "in vitro", "concentration": "365 nM", "setting": "natural RNA segment, single round, ends assumed", "relative to": "no-protein control", "direction": "higher = stronger binding", "Residues (chain)": "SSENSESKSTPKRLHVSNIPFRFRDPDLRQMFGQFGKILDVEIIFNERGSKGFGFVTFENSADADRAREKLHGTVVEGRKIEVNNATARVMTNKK"}
{"Oligonucleotide": "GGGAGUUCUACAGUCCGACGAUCUCAUUACUGUUUGAUUGAAAAUAAUUUCAAGAUUCAAAAUCUCAUUGACUUCCCAAAUUUGUGUUUUUAAGAAGGCUUUGCUGCAAGCUACCAUUCCCAAUGGGGCAGUCUGGAAUUCUCGGGUGCCAA", "RBNS enrichment (R)": 0.752}
{"Oligonucleotide": "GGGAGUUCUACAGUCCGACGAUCGGUGGCCAGGUCAGCUACUGCCCUUCCCAGAAAGCCCUGGAGGUGACCAUAGCCUGUCACCACCCAACAUCACCACGGGCUGGGUUUUGUGUUUCACAUUGGGUAGUAUGUGGAAUUCUCGGGUGCCAA", "RBNS enrichment (R)": 0.515}
{"Oligonucleotide": "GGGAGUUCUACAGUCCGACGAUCGCAAAUCUGUCUUGCCAAGGAACUAGGAGCAACCGGAGGCAAAGGGAGUGGGUGGCCCCAUCACUAUUGGGACCAUCGCGUCCCUGCACAGCCCACACCCGGGGGCCCAGUGGAAUUCUCGGGUGCCAA", "RBNS enrichment (R)": 0.273}
{"Oligonucleotide": "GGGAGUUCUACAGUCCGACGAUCUCCCUUGUGUUUCAACCAAUCAGAAACUACUUUAACUAAAUGUACUAACCUUUUUCCCUCCUAAUUUGCUUUGAAAAAGUUUAGUAAUUCAAUUAAGCGUGAUUCUAUCUUGGAAUUCUCGGGUGCCAA", "RBNS enrichment (R)": 0.37}
{"Oligonucleotide": "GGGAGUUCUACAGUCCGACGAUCGGAGCAGGGUUUCCUCAGAUGAGGACUGCAUUCUUUGAAAACAAAGAAUGUCGCCAAGGAAGAAACCUCACGCCAUGCUGUAGUGUUUCCUGUAAUCACACGAGCACAUUUGGAAUUCUCGGGUGCCAA", "RBNS enrichment (R)": 0.276}
{"Oligonucleotide": "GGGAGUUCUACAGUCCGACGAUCUGUGUGUGUGUCUUAGUGGAUCUUUACUUACCCAGGAGCAGGGCUAUGCUUACUCCUUGAAGCUCCUCCUAAAGGCCUCUCCUCCAUGCUAUACCCCUCUCCAUUACAGAUGGAAUUCUCGGGUGCCAA", "RBNS enrichment (R)": 0.234}
{"Oligonucleotide": "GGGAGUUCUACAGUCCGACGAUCAUGUAUUACUCUUCUUCUUUUAAUUUAUGUUAGAACGAGAAAAGCUUAAUACAACAGGUGCCCAGAAUACUUGCAGUGUAAAUGAAGAUUGGAUUUUUGUAUAAAAAGAUUGGAAUUCUCGGGUGCCAA", "RBNS enrichment (R)": 0.603}
{"Oligonucleotide": "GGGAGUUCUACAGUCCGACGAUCAUUUCUUAUUUGUUUGGUCACUGCUACACCUUAGCAGCUCUUCCCCUUUCCUGGGGGAUGUGCACGGCAGCUUGAGCCUGUCACGUGGUCAAGGCCCGGCCCCAUCAGAGUGGAAUUCUCGGGUGCCAA", "RBNS enrichment (R)": 0.53}
{"data": "Series 4", "Molecule": "B1 (TRIM34 RING domain)", "technique": "yeast two-hybrid", "sample": "yeast", "setting": "mostly zero background", "relative to": "not given", "direction": "higher = stronger interaction", "B1": "TRIM34 RING domain (UniProt Q9BYJ4); chain ILLNVQEEVTCPICLELLTEPLSLDCGHSLCRACITVSNKEAVTSMGGKSSCPVCGISYSFEHLQA"}
{"target": "UBE2U UBC core domain (UniProt Q5VVX9)", "lacZ reporter activity": 11600}
{"target": "UBE2H UBC core domain (UniProt P62256)", "lacZ reporter activity": 0}
{"target": "UBE2Q2 UBC core domain (UniProt Q8WVN8)", "lacZ reporter activity": 0}
{"target": "UBE2N UBC core domain (UniProt P61088)", "lacZ reporter activity": 0}
{"target": "UBE2L6 UBC core domain (UniProt O14933)", "lacZ reporter activity": 0}
{"target": "UBE2V2 UBC core domain (UniProt Q15819)", "lacZ reporter activity": 0}
{"target": "UBE2G2 UBC core domain (UniProt P60604)", "lacZ reporter activity": 0}
{"target": "CDC34 UBC core domain (UniProt P49427)", "lacZ reporter activity": 0}
{"target": "UBE2V1 UBC core domain (UniProt Q13404)", "lacZ reporter activity": 0}
{"target": "UBE2E2 UBC core domain (UniProt Q96LR5)", "lacZ reporter activity": 0}
{"note": "Some of these lines once more (series 3):"}
{"Oligonucleotide": "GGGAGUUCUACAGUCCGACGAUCUGUGUGUGUGUCUUAGUGGAUCUUUACUUACCCAGGAGCAGGGCUAUGCUUACUCCUUGAAGCUCCUCCUAAAGGCCUCUCCUCCAUGCUAUACCCCUCUCCAUUACAGAUGGAAUUCUCGGGUGCCAA", "RBNS enrichment (R)": 0.234}
{"Oligonucleotide": "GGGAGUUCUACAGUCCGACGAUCGCAAAUCUGUCUUGCCAAGGAACUAGGAGCAACCGGAGGCAAAGGGAGUGGGUGGCCCCAUCACUAUUGGGACCAUCGCGUCCCUGCACAGCCCACACCCGGGGGCCCAGUGGAAUUCUCGGGUGCCAA", "RBNS enrichment (R)": 0.273}
{"Oligonucleotide": "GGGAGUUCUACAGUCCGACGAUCGGUGGCCAGGUCAGCUACUGCCCUUCCCAGAAAGCCCUGGAGGUGACCAUAGCCUGUCACCACCCAACAUCACCACGGGCUGGGUUUUGUGUUUCACAUUGGGUAGUAUGUGGAAUUCUCGGGUGCCAA", "RBNS enrichment (R)": 0.515}
{"Oligonucleotide": "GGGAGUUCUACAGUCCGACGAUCAUUUCUUAUUUGUUUGGUCACUGCUACACCUUAGCAGCUCUUCCCCUUUCCUGGGGGAUGUGCACGGCAGCUUGAGCCUGUCACGUGGUCAAGGCCCGGCCCCAUCAGAGUGGAAUUCUCGGGUGCCAA", "RBNS enrichment (R)": 0.53}
{"Oligonucleotide": "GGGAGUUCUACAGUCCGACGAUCUCAUUACUGUUUGAUUGAAAAUAAUUUCAAGAUUCAAAAUCUCAUUGACUUCCCAAAUUUGUGUUUUUAAGAAGGCUUUGCUGCAAGCUACCAUUCCCAAUGGGGCAGUCUGGAAUUCUCGGGUGCCAA", "RBNS enrichment (R)": 0.752}
